Results gathered from unrelated publications.
Compare with care: the assays were run in different laboratories. “And” joins repeats or separate records; there may be more than shown. ± marks the error that the study gave.
rep main protease: Replicase polyprotein 1ab, main protease (rep, Severe acute respiratory syndrome coronavirus 2, UniProt P0DTD1)
Spike glycoprotein: Spike glycoprotein (Severe acute respiratory syndrome coronavirus 2, UniProt P0DTC2)

The Ki of `COP(=O)(OC)OC=C(Cl)Cl` is reported as > 5 mM (rat CYP2C; tolbutamide hydroxylation, non-competitive inhibitor; rat Sprague-Dawley, liver microsomes; 30 min, pH 7.4, together with: tolbutamide 1 to 10 mM).
The inhibition of `C[C@]1(C(=O)N[C@@H]2CC[C@H]3C[C@@H]2CN3C(=O)Cc2cncc(O)c2)CCc2ccccc2C1` is reported as 13.8% (rep main protease; enzyme activity, inhibitor; 5 µM, run 1).
`O=C(/C=C/c1ccc(O)c2oc(-c3ccc(O)c(O)c3)cc12)O[C@H](Cc1ccc(O)c(O)c1)C(=O)O` gave a kon of 626 M⁻¹ s⁻¹ (Spike glycoprotein; binding, biolayer interferometry).
`Nc1ncnc2c1ncn2C1CCN(C(=O)c2ccc(S(=O)(=O)F)cc2)CC1` has a kinact of 0.000167 s⁻¹ (cya (Bacillus anthracis, UniProt P40136)).
With `O=C(/C=C/c1ccc(O)c(O)c1/C=C/c1ccc(O)c(O)c1)O[C@H](Cc1ccc(O)c(O)c1)C(=O)O` the kon was 346 M⁻¹ s⁻¹ (Spike glycoprotein; binding, BLI).
`CC[C@H](C)[C@H](NC(=O)[C@@H]1CCCN1C(=O)[C@H](C)NC(=O)[C@@H]1CSSC[C@@H]2NC(=O)[C@H](CC(=O)O)NC(=O)[C@H](CCCNC(=N)N)NC(=O)[C@H](CCC(=O)O)NC(=O)[C@H](CCCNC(=N)N)NC(=O)CNC(=O)[C@H](CC(=O)O)NC(=O)[C@@H]3CSSC[C@H](NC(=O)[C@H](CCC(=O)O)NC(=O)[C@H](CC(C)C)NC(=O)CNC(=O)[C@H](C)NC(=O)[C@H](CSSC[C@H](NC(=O)[C@H](Cc4ccccc4)NC(=O)[C@@H](N)CO)C(=O)N[C@@H](CC(C)C)C(=O)N[C@@H](C(C)C)C(=O)N[C@@H](CCCCN)C(=O)N[C@@H](Cc4c[nH]c5ccccc45)C(=O)N[C@@H](CCCCN)C(=O)N[C@@H](CCC(N)=O)C(=O)N3)NC2=O)C(=O)N[C@@H](Cc2c[nH]c3ccccc23)C(=O)N[C@@H](CCCCN)C(=O)N[C@@H](CCCNC(=N)N)C(=O)N[C@@H](CO)C(=O)NCC(=O)N[C@@H](CC(N)=O)C(=O)N[C@@H](CCCCN)C(=O)N[C@@H](CO)C(=O)N[C@@H](CO)C(=O)N[C@@H](C(C)C)C(=O)N1)C(=O)N[C@H](C(=O)O)[C@@H](C)O`: “deactivation time constant” 2 ± 0.7 ms (ASIC1 (Homo sapiens, UniProt P78348, F352A); outside-out patch clamp; HEK-293T ASIC1a knockout; 1 µM, F352A mutant).
With `Nc1ncnc2c([C@@H]3N[C@H](CO)[C@@H](O)[C@H]3O)c[nH]c12` the inhibition was 3% (Western equine encephalitis virus; viral replication, inhibitor; Vero 76; 0.1 µM).
`O=C(NC[C@H](NC(=O)c1cncc2ccccc12)c1ccc2ccccc2c1)c1cccnc1` gave an inhibition of 12.6% (rep main protease; enzyme activity, inhibitor; 5 µM, run 1).
`CCCCN(CCCNC(=O)c1cc(Nc2cccc(SC)c2)nc2ccccc12)Cc1ccccc1` has a maximum response of 33.1% (SARS-CoV-2; cytopathic effect; USA_WA1/2020; round 2, 5-point).
With `C[C@@H]1O[C@@H](Oc2c(-c3cc(O)c(O)c(O)c3)oc3cc(O)cc(O)c3c2=O)[C@H](O)[C@H](O)[C@H]1O` the kon was 38.9 M⁻¹ s⁻¹ (Spike glycoprotein; binding, biolayer interferometry).
`Cn1cnc(Cn2c(=O)[nH]/c(=N\c3cc4cn(C)nc4cc3Cl)n(Cc3cc(F)c(F)cc3F)c2=O)n1` — result for “patients with adverse event”: 0% (human, all renal function groups; oral, 375 mg, treatment-related decreased GFR, Severe severity).
For `N[C@@H](CC(=O)N1CCc2c(nc(C(F)(F)F)nc2C(F)(F)F)C1)CN1CC(F)(F)CCC1=O`, the inhibition was -0.46% (rep main protease; reporter gene (mKate2), inhibitor; 20 µM).
With `CC(C)(C)[C@H](NC(=O)C(F)(F)F)C(=O)N1C[C@H]2[C@@H]([C@H]1C(=O)N[C@H](C#N)C[C@@H]1CCNC1=O)C2(C)C` the AUC(0-t) was 3750 ng·h/mL (human, fasted; oral, 500 mg single dose, no ritonavir).
`C[C@@H]1Cc2c(Cl)cc(C(=O)N[C@@H](Cc3ccccc3)C(=O)O)c(O)c2C(=O)O1` gave a Km of 330 µM (porcine pancreatic lipase; substrate, HPLC fluorescence; pH 7.5, 37 °C, Km above tested range).
`O=C(NCC[C@H]1CCCN(C(=O)c2ccc(-c3cnc[nH]3)cc2)C1)c1ccc2n[nH]c(=O)n2c1` has an inhibition of 8.7% (rep main protease; enzyme activity, inhibitor; 5 µM, run 2).
`Cl.NCCc1ccc(S(=O)(=O)F)cc1` gave an inhibition of 3.07% (rep main protease; reporter gene (Gaussia luciferase), inhibitor; 20 µM).
With `Cc1cncc(CC(=O)N2CC3(CC[C@H](CNC(=O)[C@@]4(O)CCc5ccccc5C4)O3)C2)c1` the inhibition was 13.5% (rep main protease; enzyme activity, inhibitor; 5 µM, mean of runs).
`COC(=O)N[C@H](C(=O)NNC[C@H](O)[C@H](Cc1ccccc1)NC(=O)[C@@H](NC(=O)OC)C(C)(C)C)C(C)(C)C` gave an inhibition of -0.773% (rep main protease; viral replication, mKate2 reporter; SARS-CoV-2; 20 µM).
`CCc1c(C(=O)C(N)=O)c2c(OCC(=O)O)cccc2n1Cc1ccccc1` has a remaining activity of 97% and 100% (Daboia russelii venom phospholipase A2; enzyme activity, inhibitor; TN population; 0.1 µM, together with: NOB substrate; relative to: venom alone).
With `Nc1ncnc2c1ncn2[C@H]1C[C@H](O)[C@@H](COP(=O)(O)OP(=O)(O)OP(=O)(O)O)O1` the Km was 0.0548 ± 0.0183 µM (Gag-Pol polyprotein, reverse transcriptase (gag-pol, Human immunodeficiency virus type 1 group M subtype B, UniProt P04585, K653R); substrate; K66R mutant, together with: matched T:A primer template).
`CC(C)C[C@H](NC(=O)[C@H](CC(=O)O)NC(=O)CNC(=O)[C@H](CCCNC(=N)N)NC(=O)[C@H](CC(C)C)NC(=O)[C@H](CC(N)=O)NC(=O)[C@@H]1CCCN1C(=O)[C@@H](NC(=O)[C@H](C)NC(=O)[C@H](CC(N)=O)NC(=O)CCOCCOCCOCCOCCOCCOCCOCCOCCOCCOCCOCCOCCOCCOCCOCCOCCOCCOCCOCCOCCOCCOCCOCCOCCOCCOCCOCCOCCNC(=O)CCOCCOCCOCCOCCOCCOCCOCCOCCOCCOCCOCCOCCOCCOCCOCCOCCOCCOCCOCCOCCOCCOCCOCCOCCOCCOCCOCCOCCNC(=O)c1ccc(F)cc1)C(C)C)C(=O)N[C@@H](CCC(N)=O)C(=O)N[C@H](C(=O)N[C@@H](CC(C)C)C(=O)N[C@@H](C)C(=O)N[C@@H](CCC(N)=O)C(=O)N[C@@H](CCCCN)C(=O)N[C@H](C(=O)N[C@@H](C)C(=O)N[C@@H](CCCNC(=N)N)C(=O)N[C@H](C(N)=O)[C@@H](C)O)C(C)C)C(C)C` [fluorine-18 labelled] has a tissue uptake of 0.54 ± 0.08 %ID/g (male athymic nude mice, DX3puroβ6 xenograft, αvβ6-positive DX3puroβ6 tumour; intravenous, 4 h).
`O=C1CC(C(=O)N2CC3(CCC3)C[C@H]2CNC(=O)c2cncc3[nH]cnc23)CC(=O)N1` has an inhibition of 11.9% (rep main protease; enzyme activity, inhibitor; 5 µM, run 2).
With `[N-]=[N+]=N[C@@H]1O[C@H](CO)[C@H](O[C@H]2O[C@H](CO)[C@H](O)[C@H](O)[C@H]2O)[C@H](O)[C@H]1O` the log IC50 was -2.3 (Shiga toxin subunit B (stxB, Shigella dysenteriae, UniProt Q7BQ98); Escherichia coli).
For `NC(=O)CI`, the Hill slope was 2.14 ± 0.036 (Replicase polyprotein 1ab, nsp14 N7-methyltransferase (rep, Severe acute respiratory syndrome coronavirus 2, UniProt P0DTD1); N7-methyltransferase activity, inhibitor, Py-FLINT).
Under activity, `CCCCCCCCCC(C)CCC(C)C(=O)OC` (stereo not drawn) is recorded as “inactive” (Spike glycoprotein, RBD (Severe acute respiratory syndrome coronavirus 2, UniProt P0DTC2); binding; concentration not given).
The efficacy of `O=C(NCc1ccccc1Cl)C1CCCN(Cc2cccc(-c3ccc(F)cc3F)c2)C1` (stereo not drawn) is reported as 37.3% (SARS-CoV-2; cytopathic effect; USA_WA1/2020; retest, 8-point, duplicates).
`C[C@@H]1Cc2c(Cl)cc(C(=O)N[C@H](Cc3ccccc3)C(=O)O)c(O)c2C(=O)O1` has a hatchability difference of ~11% (chicken embryos; in ovo injection, 0.75 µg/egg; relative to: ochratoxin A).
For `C[C@H]1CC[C@@]2(OC1)O[C@H]1C[C@H]3[C@@H]4CC[C@@H]5C[C@@H](O[C@@H]6O[C@H](CO)[C@H](O)[C@H](O)[C@H]6O[C@@H]6O[C@H](CO)[C@@H](O)[C@H](O)[C@H]6O)CC[C@]5(C)[C@H]4CC[C@]3(C)[C@H]1[C@@H]2C`, the koff was 0.238 s⁻¹ (Spike glycoprotein; binding).
With `O=C1[C@H]2CSC3(C(=O)c4ccccc4C3=O)N2C(=O)[C@H]2CSC3(C(=O)c4ccccc4C3=O)N12` the inhibition was 2.58% (rep main protease; viral replication, Gluc reporter; SARS-CoV-2; 20 µM).
`O=C(N[C@@H]1CCCC[C@]12CCCN(C(=O)c1cc[nH]c(=O)c1)C2)c1cncc2ccccc12` has an inhibition of 11.7% (rep main protease; enzyme activity, inhibitor; 5 µM, mean of runs).
The inhibition of `Z-FA-FMK` is reported as 9.73% (rep main protease; enzyme activity, mKate2 fluorescence reporter; SARS-CoV-2; 20 µM).
`CC[C@H](C)[C@H](NC(=O)[C@H](CC(C)C)NC(=O)[C@H](Cc1c[nH]c2ccccc12)NC(=O)[C@H](CCC(N)=O)NC(=O)[C@@H](NC(=O)[C@H](Cc1ccccc1)NC(=O)[C@H](C)NC(=O)[C@H](CCCCNC(=O)COCCOCCNC(=O)COCCOCCNC(=O)CC[C@H](NC(=O)CCCCCCCCCCCCCCCCCCC(=O)O)C(=O)O)NC(=O)[C@H](CCC(N)=O)NC(=O)[C@H](C)NC(=O)[C@@H](NC(=O)[C@H](CCCCN)NC(=O)[C@H](CC(=O)O)NC(=O)[C@H](CC(C)C)NC(=O)C(C)(C)NC(=O)[C@@H](NC(=O)[C@H](CO)NC(=O)[C@H](Cc1ccc(O)cc1)NC(=O)[C@H](CC(=O)O)NC(=O)[C@H](CO)NC(=O)[C@@H](NC(=O)[C@H](Cc1ccccc1)NC(=O)[C@@H](NC(=O)CNC(=O)[C@H](CCC(=O)O)NC(=O)C(C)(C)NC(=O)[C@@H](N)Cc1ccc(O)cc1)[C@@H](C)O)[C@@H](C)O)[C@@H](C)CC)[C@@H](C)CC)C(C)C)C(=O)N[C@@H](C)C(=O)NCC(=O)NCC(=O)N1CCC[C@H]1C(=O)N[C@@H](CO)C(=O)N[C@@H](CO)C(=O)NCC(=O)N[C@@H](C)C(=O)N1CCC[C@H]1C(=O)N1CCC[C@H]1C(=O)N1CCC[C@H]1C(=O)N[C@@H](CO)C(N)=O`: “subjects with treatment-induced ADA” 0% (measured: anti-drug antibodies; patients with type 2 diabetes; 5 mg, postbaseline, proof of concept, titre ≥1:20).
For `Cc1cc(C)c(CNC(=O)c2cc(Cl)c3c(c2C)O[C@@](C)([C@H]2CC[C@H](N(C)C)CC2)O3)c(=O)[nH]1`, “COVID-19 pneumonia incidence” read 0% (human, relapsed/refractory NHL; concentration not given, all TEAEs, grade 5).
With `C[C@@H]1CC[C@]2(C(=O)O)CC[C@]3(C)C(=CC[C@@H]4[C@@]5(C)CC[C@H](O)C(C)(C)[C@@H]5CC[C@]43C)[C@@H]2[C@]1(C)O` the inhibition was -1.46% (rep main protease; reporter gene (mKate2), inhibitor; 20 µM).
`O=C(NC[C@H](NC(=O)c1cncc2c1CCNC2=O)c1ccc2ccccc2c1)c1ccon1` gave an inhibition of 11% (rep main protease; enzyme activity, inhibitor; 5 µM, mean of runs).
`C[C@H](NC(=O)Cc1cc(F)cc(F)c1)C(=O)N[C@@H]1C(=O)N(C)c2ccccc2-c2ccccc21` gave an inhibition of 0.0344% (rep main protease; viral replication, mKate2 reporter; SARS-CoV-2; 20 µM).
The kon of `CC(C)=CCc1c(O)ccc(C(=O)/C=C/c2ccc(O)cc2)c1O` is reported as 3860 M⁻¹ s⁻¹ (Spike glycoprotein; binding, BLI).
`O=c1c(-c2ccc(O)cc2)coc2c([C@@H]3O[C@H](CO[C@@H]4OC[C@@H](O)[C@H](O)[C@H]4O)[C@@H](O)[C@H](O)[C@H]3O)c(O)ccc12` has an inhibition of -0.848% (rep main protease; reporter gene (mKate2), inhibitor; 20 µM).
With `O=C(N[C@@H]1CC[C@H]2C[C@@H]1CN2C(=O)c1ccc(-c2ccccc2)[nH]1)c1cc(O)cc(=O)[nH]1` the inhibition was 40.6% (rep main protease; enzyme activity, inhibitor; 5 µM, mean of runs).

A few entries again:
The efficacy of `O=C(NCc1ccccc1Cl)C1CCCN(Cc2cccc(-c3ccc(F)cc3F)c2)C1` (stereo not drawn) is reported as 37.3% (SARS-CoV-2; cytopathic effect; USA_WA1/2020; retest, 8-point, duplicates).
`C[C@@H]1Cc2c(Cl)cc(C(=O)N[C@H](Cc3ccccc3)C(=O)O)c(O)c2C(=O)O1` has a hatchability difference of ~11% (chicken embryos; in ovo injection, 0.75 µg/egg; relative to: ochratoxin A).
For `C[C@H]1CC[C@@]2(OC1)O[C@H]1C[C@H]3[C@@H]4CC[C@@H]5C[C@@H](O[C@@H]6O[C@H](CO)[C@H](O)[C@H](O)[C@H]6O[C@@H]6O[C@H](CO)[C@@H](O)[C@H](O)[C@H]6O)CC[C@]5(C)[C@H]4CC[C@]3(C)[C@H]1[C@@H]2C`, the koff was 0.238 s⁻¹ (Spike glycoprotein; binding).
With `O=C1[C@H]2CSC3(C(=O)c4ccccc4C3=O)N2C(=O)[C@H]2CSC3(C(=O)c4ccccc4C3=O)N12` the inhibition was 2.58% (rep main protease; viral replication, Gluc reporter; SARS-CoV-2; 20 µM).
